Published values of several laboratories.
Protocols differ between the studies behind these lines. ± gives the spread as reported.
Technique: steady-state kinetics
B1: GTPBP3 A322P/E225K (Homo sapiens, UniProt Q969Y2); chain TRRSSGAPAPGSGATIFALSSGQGRCGIAVIRTSGPASGHALRILTAPRDLPLARHASLRLLSDPRSGEPLDRALVLWFPGPQSFTGEDCVEFHVHGGPAVVSGVLQALGSVPGLRPAEAGEFTRRAFANGKLNLTEVEGLADLIHAETEAQRRQALRQLDGELGHLCRGWAETLTKALAHVEAYIDFGEDDNLEEGVLEQADIKVRALQVALGAHLRDARRGQRLRSGVHVVVTGPPNAGKSSLVNLLSRKPVSIVSPEPGTTRDVLETPVDLAGFPVLLSDTAGLREGVGPVEQEGVRRPRERLEQADLILAMLDASDLASPSSCNFLATVVASVGAQSPSDSSQRLLLVLNKSDLLSPEGPGPGPDLPPHLLLSCLTGEGLDGLLEALRKELAAVCGDPSTDPPLLTRARHQHHLQGCLDALGHYKQSKDLALAAEALRVARGHLTRLTGGGGTEEILDIIFQDFCVGK
B2: LYS12 D271N (Saccharomyces cerevisiae, UniProt P40495); chain SLTIGLIPGDGIGKEVIPAGKQVLENLNSKHGLSFNFIDLYAGFQTFQETGKALPDETVKVLKEQCQGALFGAVQSPTTKVEGYSSPIVALRREMGLFANVRPVKSVEGEKGKPIDMVIVRENTEDLYIKIEKTYIDKATGTRVADATKRISEIATRRIATIALDIALKRLQTRGQATLTVTHKSNVLSQSDGLFREICKEVYESNKDKYGQIKYNEQIVDSMVYRLFREPQCFDVIVAPNLYGDILSNGAAALVGSLGVVPSANVGPEIVIGEPCHGSAPDIAGKGIANPIATIRSTALMLEFLGHNEAAQDIYKAVDANLREGSIKTPDLGGKASTQQVVDDVLSRL
B3: bga E532Q (Niallia circulans, UniProt E5RWQ2); chain GNSVSYDGERRVNFNENWRFQRETNGSIAGAQNPGFDDSSWRKLNLPHDWSIELDFNKNSLATHEGGYLDGGIGWYRKTFTIPESMKGKRISLDFDGVYMNSTTYLNGEVLGTYPFGYNAFSYDISDKLYKDGRANVLVVKVNNTQPSSRWYSGSGIYRNVYLTVTDPIHVARYGTFVTTPNLEKSIKEDRADVNIKTKISNDAAEAKQVKIKSTIYDGAGNTVQTVETEEKTAAAGTVTPFEQNTVIKQPKLWSIDKPYRYNLVTEVIVGGQTVDTYETKFGVRYFKFDENEGFSLNGEYMKLHGVSMHHDLGALGAATNARGVERQMQIMKDMGVNAIRVTHNPASPELLEAANKLGLFIIEEAFDSWAQSKKPYDYGRFFNAWAEHDIKEMVDRGKNEPAIIMWSIGNEIYDTTNAAGVETARNLVGWVKEIDTTRPTTIGEDKTRGDKVNVTPINSYIKEIFNIVDVVGLNYSENNYDGYHKQNPSWKLYGSQTSSATRSRGVYTHPYQYNQSTKYADLQQSSYDNDYVGWGRTAEDAWKYDRDLKHIAGQFIWTGFDYIGEPTPYYNSYPAKSSYFGAVDTAGFPKDIFYYYQSQWKKEPMVHLLPHWNWKEGEKVRVLAYTNASKVELVLNGESLGEKNYDNKQTSWGAPYKETKDGKTYLEWAVPFKPGKLEAVAKDENGKVIARDQVVTAGEPASVRLTADRKVVKADGTDLSFITADIVDSKGIVVPDADHLITFNVTGQGELAGVDNGNASSVERYKDNKRKAFSGKALAIVQSSKLSGKITVHASVAGLSSDSTSVFTVTP
B4: cyc1 A236G (Streptomyces coelicolor, UniProt Q9K499); chain MHAFPHGTTATPTAIAVPPSLRLPVIEAAFPRQLHPYWPKLQETTRTWLLEKRLMPADKVEEYADGLCYTDLMAGYYLGAPDEVLQAIADYSAWFFVWDDRHDRDIVHGRAGAWRRLRGLLHTALDSPGDHLHHEDTLVAGFADSVRRLYAFLPATWNARFARHFHTVIEAYDREFHNRTRGIVPGVEEYLELRRLTFAHWIWTDLLEPSSGCELPDAVRKHPAYRRAALLSQEFGAWYNDLCSLPKEIAGDEVHNLGISLITHHSLTLEEAIGEVRRRVEECITEFLAVERDALRFADELADGTVRGKELSGAVRANVGNMRNWFSSVYWFHHESGRYMVDSWDDRSTPPYVNNEAAGEK
B5: enzyme (Acinetobacter baumannii, UniProt D0CBC8); chain MALVLDGRALAKQIEENLLVRVEALKAKTGRTPILATILVGDDGASATYVRMKGNACRRVGMDSLKIELPQETTTEQLLAEIEKLNANPDVHGILLQHPVPAQIDERACFDAISLAKDVDGVTCLGFGRMAMGEAAYGSATPAGIMTILKENNIEIAGKHAVVVGRSAILGKPMAMMLLQANATVTICHSRTQNLPELVKQADIIVGAVGKAELIQKDWIKQGAVVVDAGFHPRDGGGVGDIQLQGIEEIASAYTPVPGGVGPMTITTLIRQTVEAAEKALG
B6: rebH (Lentzea aerocolonigenes, UniProt Q8KHZ8); chain MSGKIDKILIVGGGTAGWMAASYLGKALQGTADITLLQAPDIPTLGVGEATIPNLQTAFFDFLGIPEDEWMRECNASYKVAIKFINWRTAGEGTSEARELDGGPDHFYHSFGLLKYHEQIPLSHYWFDRSYRGKTVEPFDYACYKEPVILDANRSPRRLDGSKVTNYAWHFDAHLVADFLRRFATEKLGVRHVEDRVEHVQRDANGNIESVRTATGRVFDADLFVDCSGFRGLLINKAMEEPFLDMSDHLLNDSAVATQVPHDDDANGVEPFTSAIAMKSGWTWKIPMLGRFGTGYVYSSRFATEDEAVREFCEMWHLDPETQPLNRIRFRVGRNRRAWVGNCVSIGTSSCFVEPLESTGIYFVYAALYQLVKHFPDKSLNPVLTARFNREIETMFDDTRDFIQAHFYFSPRTDTPFWRANKELRLADGMQEKIDMYRAGMAINAPASDDAQLYYGNFEEEFRNFWNNSNYYCVLAGLGLVPDAPSPRLAHMPQATESVDEVFGAVKDRQRNLLETLPSLHEFLRQQHGR
B7: ASRGL1 (Homo sapiens, UniProt Q7L266); chain 1 MNPIVVVHGGGAGPISKDRKERVHQGMVRAATVGYGILREGGSAVDAVEGAVVALEDDPEFNAGCGSVLNTNGEVEMDASIMDGKDLSAGAVSAVQCIANPIKLARLVMEKTPHCFLTDQGAAQFAAAMGVPEIPGEKLVTERNKKRLEKEKHEKGAQKTDCQKNLG; chain 2 TVGAVALDCKGNVAYATSTGGIVNKMVGRVGDSPCLGAGGYADNDIGAVSTTGHGESILKVNLARLTLFHIEQGKTVEEAADLSLGYMKSRVKGLGGLIVVSKTGDWVAKWTSTSMPWAAAKDGKLHFGIDPDDTTITDLP
B8: asnB E349D (Escherichia coli, UniProt P22106); chain CSIFGVFDIKTDAVELRKKALELSRLMRHRGPDWSGIYASDNAILAHERLSIVDVNAGAQPLYNQQKTHVLAVNGEIYNHQALRAEYGDRYQFQTGSDCEVILALYQEKGPEFLDDLQGMFAFALYDSEKDAYLIGRDHLGIIPLYMGYDEHGQLYVASEMKALVPVCRTIKEFPAGSYLWSQDGEIRSYYHRDWFDYDAVKDNVTDKNELRQALEDSVKSHLMSDVPYGVLLSGGLDSSIISAITKKYAARRVEDQERSEAWWPQLHSFAVGLPGSPDLKAAQEVANHLGTVHHEIHFTVQEGLDAIRDVIYHIETYDVTTIRASTPMYLMSRKIKAMGIKMVLSGDGSDEVFGGYLYFHKAPNAKELHEETVRKLLALHMYDCARANKAMSAWGVEARVPFLDKKFLDVAMRINPQDKMCGNGKMEKHILRECFEAYLPASVAWRQKEQFSDGVGYSWIDTLKEVAAQQVSDQQLETARFRFPYNTPTSKEAYLYREIFEELFPLPSAAECVPGGPSVACSSAKAIEWDEAFKKMDDPSGRAVGVHQSAYK
B9: TenA_E (Arabidopsis thaliana, UniProt Q9ASY9); chain MEKRGVIDTWIDKHRSIYTAATRHAFVVSIRDGSVDLSSFRTWLGQDYLFVRRFVPFVASVLIRACKDSGESSDMEVVLGGIASLNDEIEWFKREGSKWDVDFSTVVPQRANQEYGRFLEDLMSSEVKYPVIMTAFWAIEAVYQESFAHCLEDGNKTPVELTGACHRWGNDGFKQYCSSVKNIAERCLENASGEVLGEAEDVLVRVLELEVAFWEMSRGGQ

Substance | substrate | pH | temperature | notes | with | kcat [s⁻¹]
B1 (GTPBP3 A322P/E225K) | Nc1nc2c(ncn2[C@@H]2O[C@H](COP(=O)(O)OP(=O)(O)OP(=O)(O)O)[C@@H](O)[C@H]2O)c(=O)[nH]1 | pH 8 | 37 °C | KCl 300 mM |  | 0.0132 ± 0.002
B2 (LYS12 D271N) | O=C(O)CC[C@H](C(=O)O)[C@@H](O)C(=O)O | pH 7.5 | 25 °C | potassium acetate 100 mM, substrate as Mg complex | NAD+ varied; Mg2+ 10 mM | 0.026 ± 0.002
enzyme (Staphylococcus aureus, UniProt Q2FXA5) | Cc1c2[nH]c(c1CCC(=O)O)Cc1[nH]c(c(CCC(=O)O)c1C)Cc1[nH]c(c(CCC(=O)O)c1C)Cc1[nH]c(c(C)c1CCC(=O)O)C2 | pH 8 | 37 °C |  |  | 0.00767 ± 0.000333
B3 (bga E532Q) | O=[N+]([O-])c1ccccc1O[C@@H]1O[C@H](CO)[C@H](O)[C@H](O)[C@H]1O | pH 6 | 40 °C | low-substrate phase, biphasic |  | 0.2 ± 0.01
B4 (cyc1 A236G) | CC(C)=CCC/C(C)=C/CC/C(C)=C/CO[P@@](=O)(O)OP(=O)(O)O | pH 6.5 | 30 °C |  | MgCl2 10 mM | 0.066 ± 0.002
B5 (enzyme) | Nc1nc2c(c(=O)[nH]1)N1CN(c3ccc(C(=O)N[C@@H](CCC(=O)O)C(=O)O)cc3)C[C@H]1CN2 | pH 7.3 | 27 °C |  |  | 88.3 ± 2
B6 (rebH) | c1ccc2c3c([nH]c2c1)CNCC3 |  |  |  | glucose dehydrogenase regeneration | 0.000217
B7 (ASRGL1) | NC(=O)C[C@H](N)C(=O)O | pH 7.4 | 37 °C | NaCl 100 mM |  | 6.9 ± 0.2
B8 (asnB E349D) | N[C@@H](CC(=O)O)C(=O)O | pH 8 | 37 °C | apparent | L-glutamine 20 mM | 0.45 ± 0.01
B9 (TenA_E) | Cc1ncc(CN)c(N)n1 | pH 7.5 | 30 °C | amino-HMP aminohydrolase activity | 450 mM glycine betaine | 0.00015 ± 7e-06

For quick reference, copied from above:
Substance | substrate | pH | temperature | notes | with | kcat [s⁻¹]
B1 (GTPBP3 A322P/E225K) | Nc1nc2c(ncn2[C@@H]2O[C@H](COP(=O)(O)OP(=O)(O)OP(=O)(O)O)[C@@H](O)[C@H]2O)c(=O)[nH]1 | pH 8 | 37 °C | KCl 300 mM |  | 0.0132 ± 0.002
